{"data": "Measurements of several laboratories", "cell line": "SK-OV-3", "note": "Lines come from different studies, so protocols differ."}
{"Compound": "CC(C)(C)C(=O)OCOP(=O)(OCOC(=O)C(C)(C)C)C1CCCN(O)C1=O (centres unmarked)", "endpoint": "log TGI", "result": "-5.05 log M"}
{"Compound": "O=C1C=CC(=C(c2ccc(O)cc2)c2c(C#Cc3ccc(O)cc3)cccc2-c2ccc(O)cc2)C=C1", "test": "cell growth or viability, MTT", "conditions": "48 h", "endpoint": "IC50", "result": "12.1 µM"}
{"Compound": "CC1OC2OC3C4=C(OC3(C)C12O)C(=O)c1c(O)cccc1C4=O (centres unmarked)", "test": "sulforhodamine B", "conditions": "10 µg/mL, 48 h", "scale": "negative means cell kill", "endpoint": "growth percent", "result": "-78.7%"}
{"Compound": "CCCc1cc2cc(-n3nc(CC)c4c3CC3(CCC3)CC4=O)cc(N3CCC(O)CC3)c2c(=O)[nH]1", "test": "cell growth or viability, MTS", "endpoint": "IC50", "result": "3.53 µM"}
{"Compound": "O=C(c1cc(Cc2n[nH]c(=O)c3ccccc23)ccc1F)N1CC(CNC2CC2)C1", "test": "colony formation", "endpoint": "IC50", "result": "1.78 µM"}
{"Compound": "CCCc1cc2cc(-n3nc(C)c4c3CC3(CCC3)CC4=O)cc(N3CCC(O)CC3)c2c(=O)[nH]1", "test": "cell growth or viability, MTS", "endpoint": "IC50", "result": "7.73 µM"}
{"Compound": "Cc1cc(Oc2nc(N3CC[C@@H](c4ccncc4)C3)ncc2F)[nH]n1", "test": "cell proliferation", "endpoint": "IC50", "result": "> 100 µM"}
{"Compound": "Cc1cc(Nc2nc(C[C@@]3(C(=O)O)CCN(Cc4cccc(Cl)c4F)[C@H](C)C3)cc(C)c2F)[nH]n1", "test": "cell growth or viability, ATP luminescence", "conditions": "5 days", "endpoint": "IC50", "result": "> 10 µM"}
{"note": "For quick reference, copied from above:"}
{"Compound": "O=C1C=CC(=C(c2ccc(O)cc2)c2c(C#Cc3ccc(O)cc3)cccc2-c2ccc(O)cc2)C=C1", "test": "cell growth or viability, MTT", "conditions": "48 h", "endpoint": "IC50", "result": "12.1 µM"}
